Published values of several laboratories.
Every numbered part comes from another study and shows a few of its results, in no order. Changes are numbered by the printed parent chain.

Block 1
Target: human cyclin A1
Observed: peptide binding
Technique: yeast competitive growth sequencing
Form: peptide
Organism: Saccharomyces cerevisiae
Strain: cyclin A1-Cln2 fusion
Tested at: concentration not given
Setting: RxL motif peptides
Reading: direction not given
Under “binding enrichment score”, `SKACRRLFGPVDS` is recorded as 0.58.
For `SSAQRRLEIPSGG`, “binding enrichment score” read 0.155.
Under “binding enrichment score”, `PPHRRRLLFACSP` is recorded as 0.179.
For `SNARRSLNFGGST`, “binding enrichment score” read 0.954.
For `TLKGRRLVFDNQL`, “binding enrichment score” read -0.0564.
For `SRIRRELFIEEIQ`, “binding enrichment score” read 0.769.
`PPARRRLRLSVDE`: “binding enrichment score” 0.464.

Block 2
Target: ABI1, truncated, D143A, DHFR fusion (Arabidopsis thaliana)
Technique: DHFR PCA, deep sequencing
Matrix: yeast
Setting: methotrexate growth selection, single substitutions
Together with: (+)-ABA 1.4 µM
Reference: wild-type fitted maximum
Reading: higher = stronger binding
Starting sequence: PYL1, truncated, DHFR fusion (Arabidopsis thaliana); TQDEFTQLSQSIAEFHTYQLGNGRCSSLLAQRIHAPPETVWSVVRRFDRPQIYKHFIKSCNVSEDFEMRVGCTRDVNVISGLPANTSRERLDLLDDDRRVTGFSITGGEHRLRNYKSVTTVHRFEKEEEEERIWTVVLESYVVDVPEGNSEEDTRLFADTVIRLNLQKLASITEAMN
`Y115S`: “relative binding score” 2.36%.
Under “relative binding score”, `L169F` is recorded as -18.7%.
Under “relative binding score”, `P146G` is recorded as 4.19%.
`T173Y` — result for “relative binding score”: -14.2%.
`I12D` — result for “relative binding score”: -10.9%.
`V143N`: “relative binding score” -17.5%.
`T17E` — result for “relative binding score”: 12.6%.
For `G71R`, “relative binding score” read -0.532%.
`N61S` — result for “relative binding score”: 68.8%.
For `E128G`, “relative binding score” read 83.8%.
For `L29H`, “relative binding score” read 46.6%.
For `H34D`, “relative binding score” read 64.5%.
`N177E`: “relative binding score” 65.3%.
Under “relative binding score”, `A30K` is recorded as 52.4%.
`T160D` — result for “relative binding score”: 7.78%.
For `E125W`, “relative binding score” read 41.8%.
`S63F`: “relative binding score” 12.4%.
`W134Y`: “relative binding score” 84.3%.

Block 3
Target: Centromere-binding protein 1, full length, His-tagged (CBF1, Saccharomyces cerevisiae, UniProt P17106, residues 1-351)
Sequence of UniProt P17106 (whole entry, looked up): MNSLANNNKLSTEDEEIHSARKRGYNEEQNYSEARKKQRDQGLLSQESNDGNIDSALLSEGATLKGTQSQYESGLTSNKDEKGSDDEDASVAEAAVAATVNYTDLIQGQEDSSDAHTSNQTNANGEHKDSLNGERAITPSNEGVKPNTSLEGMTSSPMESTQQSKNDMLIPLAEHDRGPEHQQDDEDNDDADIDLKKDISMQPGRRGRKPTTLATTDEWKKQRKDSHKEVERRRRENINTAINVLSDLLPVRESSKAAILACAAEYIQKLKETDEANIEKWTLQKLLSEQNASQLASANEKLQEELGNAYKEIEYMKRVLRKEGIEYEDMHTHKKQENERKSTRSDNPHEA
Technique: competition protein-binding microarray
Form: double-stranded DNA, one strand shown
Matrix: in vitro
Tested at: 2 µM
Setting: whole 60-bp probe, lowest competitor level
Together with: Pho4 competitor, 0.05 µM
Reading: higher = stronger binding
With `TTGTTCCTCTGAAAGCACGGGCCGGCGCACTCCAATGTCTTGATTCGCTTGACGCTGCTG` the fluorescence intensity was 71.8 a.u.
With `TGGGACAAAAATGATACCGTGATGGGCCAAAGTAGAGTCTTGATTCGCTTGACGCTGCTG` the fluorescence intensity was 113 a.u.
`CTCGTTACATGTTCCAACGTGACTCGAGAAAGCATGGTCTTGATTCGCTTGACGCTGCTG` gave a fluorescence intensity of 767 a.u.
`ACCCAAACTGTGTGGAACGTGACGGAATTGCATTTGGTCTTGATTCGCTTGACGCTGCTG` gave a fluorescence intensity of 384 a.u.
The fluorescence intensity of `CTTCTGTAAATTTTTCACGTGGAGTGAAGCGCCCCGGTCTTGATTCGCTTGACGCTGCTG` is reported as 401 a.u.
`AAAGCGGTAATTTTCCACGTGTTTTCACATATCTATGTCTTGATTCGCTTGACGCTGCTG` gave a fluorescence intensity of 858 a.u.
`CGGGGTTAAGTTTTTCACGTGTTTTGCTTGCAGCAGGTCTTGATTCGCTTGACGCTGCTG` has a fluorescence intensity of 804 a.u.
The fluorescence intensity of `AAAGCAAGAACCCTTCACATGTCAAACCTGAACGCAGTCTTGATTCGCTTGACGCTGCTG` is reported as 112 a.u.
With `CTTCTGTAAATTTGTGCAGTGGGTGGACGCGCCCCGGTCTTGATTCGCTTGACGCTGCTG` the fluorescence intensity was 81.3 a.u.
`GTCTTGTCTCATTGTCACGCTACTTTCCCCACTTCAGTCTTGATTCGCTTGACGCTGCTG` has a fluorescence intensity of 222 a.u.
`TCTTGTTCGGCCGGTAGCGTGCCGATTCAGGTAACGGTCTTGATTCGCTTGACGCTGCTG` has a fluorescence intensity of 73 a.u.
`CGTCCTAGTGATTTTCACGTGAAATCCATGAGGAAGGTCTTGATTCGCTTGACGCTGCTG` has a fluorescence intensity of 665 a.u.
For `TGTCTGGGACCGCTTCACGGGTCCAAATTACCACTTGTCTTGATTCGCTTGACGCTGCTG`, the fluorescence intensity was 81.7 a.u.
`GGGGACACCAGTTATCATGTTGTCAACCAAAGACTTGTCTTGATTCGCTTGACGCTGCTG` has a fluorescence intensity of 72.7 a.u.
With `CGTCCTAGTGATTGGCGTGTGGGTGCCATGAGGAAGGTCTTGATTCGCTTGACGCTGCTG` the fluorescence intensity was 103 a.u.
The fluorescence intensity of `AAAGCTGCGGTAAGGCAGGTGATGCTGATTATTAGCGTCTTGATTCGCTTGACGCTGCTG` is reported as 186 a.u.
The fluorescence intensity of `TAAGATCGTCAGTTTCACGTTCGCGGTTCGAACATGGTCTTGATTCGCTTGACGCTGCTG` is reported as 94.9 a.u.
`AGCAGTATGAACATTCGCGTGTCGGTTATAGTTGGTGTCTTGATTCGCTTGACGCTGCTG` gave a fluorescence intensity of 75.7 a.u.
`GTCGAAAGATGACCTCACGTTGCAGCCACCGACACAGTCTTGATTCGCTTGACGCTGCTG` has a fluorescence intensity of 93.9 a.u.
`GATAGGGACGCGCATCATGTGTTGCTACTGTGTTTGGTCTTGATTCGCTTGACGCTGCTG` has a fluorescence intensity of 196 a.u.
With `AAATTACTAAGTTGTCACGTGTTTTACCCCGTATGAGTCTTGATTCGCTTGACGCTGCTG` the fluorescence intensity was 6410 a.u.
`CGTCCTAGTGATTGCCGTGTGGGTGCCATGAGGAAGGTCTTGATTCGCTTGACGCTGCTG` gave a fluorescence intensity of 78.3 a.u.
The fluorescence intensity of `TGGCGCTATCTAAATTCATGATGAAACTCGATGGCCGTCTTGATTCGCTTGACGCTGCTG` is reported as 65.7 a.u.
`CGTCCTAGTGATTTTCACGTGCCCTCCATGAGGAAGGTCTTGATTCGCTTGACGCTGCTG` has a fluorescence intensity of 1150 a.u.
For `CGTCTAAAAGTTCGGCACGTGACAAACCTGGTATTTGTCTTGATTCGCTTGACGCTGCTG`, the fluorescence intensity was 6970 a.u.

Block 4
Target: CEP164, C-terminal peptide (human)
Technique: DHFR complementation, deep sequencing
Matrix: yeast
Setting: single substitutions, model-inferred values
Reference: wild type
Reading: higher = weaker binding
Starting sequence: PDZK1, PDZ domain 2 (human); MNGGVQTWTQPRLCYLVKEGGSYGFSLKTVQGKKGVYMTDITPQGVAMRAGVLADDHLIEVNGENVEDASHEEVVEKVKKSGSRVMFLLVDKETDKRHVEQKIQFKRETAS; partner HNRVKVYRF
`S83V`: “binding free energy change” 0.16 kcal/mol.
`E73S` — result for “binding free energy change”: 0.0395 kcal/mol.
`V85L` — result for “binding free energy change”: 0.297 kcal/mol.
`S70H`: “binding free energy change” -0.0514 kcal/mol.
`C14A`: “binding free energy change” 0.0738 kcal/mol.
Under “binding free energy change”, `T7Q` is recorded as -0.00295 kcal/mol.
For `E108M`, “binding free energy change” read -0.277 kcal/mol.
`Q10W`: “binding free energy change” 0.428 kcal/mol.
`E76K` — result for “binding free energy change”: 0.105 kcal/mol.
For `A110I`, “binding free energy change” read -0.119 kcal/mol.
`I41G` — result for “binding free energy change”: 1.43 kcal/mol.
For `Q31K`, “binding free energy change” read 0.0935 kcal/mol.
For `A54W`, “binding free energy change” read 0.318 kcal/mol.
For `D40K`, “binding free energy change” read 1.3 kcal/mol.
`P11V` — result for “binding free energy change”: 0.378 kcal/mol.
For `Q31G`, “binding free energy change” read 0.16 kcal/mol.
`V46Y`: “binding free energy change” 1.01 kcal/mol.
`D56M` — result for “binding free energy change”: 0.0774 kcal/mol.
For `R84I`, “binding free energy change” read 0.143 kcal/mol.
`E72K`: “binding free energy change” 0.812 kcal/mol.
For `Q10V`, “binding free energy change” read 0.19 kcal/mol.
`K28L`: “binding free energy change” -0.345 kcal/mol.
`L53C`: “binding free energy change” 0.0863 kcal/mol.
For `D55W`, “binding free energy change” read 0.671 kcal/mol.

Block 5
Target: Interferon regulatory factor 5, full length, phosphomimetic (IRF5, Homo sapiens, UniProt Q13568-2, residues 1-514, K96S/S451D/S453D/S456D/S462D)
Technique: protein-binding microarray
Form: double-stranded DNA, one strand shown
Matrix: in vitro
Tested at: 250 nM
Setting: 60-bp whole probe
Together with: salmon DNA 0.4 mg/ml
Reference: random background probes
Reading: higher = stronger binding
Shared flanks, not repeated: GCCTAGCAC … GTCTTGATTCGCTTGACGCTGCTG
`TTAGGTCTCCTCCTGCTTTAGTGCTAG` has a log fluorescence of -0.384 z-score.
`GTAGGTTCCGGTTTCGGTTAGTGCTAG` has a log fluorescence of 9.51 z-score.
For `TTCTTAATGCTTCTGGGCCAGTGCTAG`, the log fluorescence was 0.0288 z-score.
`TCCAGTCTGGGAGATGAAGCGGTGCTA` has a log fluorescence of -0.7 z-score.
The log fluorescence of `TTAGAAGTGGGGTATCGATTAGTGCTA` is reported as 2.49 z-score.
With `GACGGTCTCGAACTGGGGACGTGCTAG` the log fluorescence was -0.352 z-score.
`TCAGTTATTAAATTTTCAACTGTGCTA` gave a log fluorescence of 1.02 z-score.
`GACGGTTTCGGGTATCAGGACGTGCTA` gave a log fluorescence of 8.24 z-score.
The log fluorescence of `TTAGGTTTCGACACTGGGGTAGTGCTA` is reported as 5.83 z-score.
For `TTAGGTTTGGGTTCCGGTTAGTGCTAG`, the log fluorescence was 0.629 z-score.
For `CACGATTTCAGTATCGAGACGTGCTAG`, the log fluorescence was 3.31 z-score.
For `TTCCTTTCTCTTCCGTTAGCGTGCTAG`, the log fluorescence was 3.28 z-score.
The log fluorescence of `GACGGTCTCGGTATCGGGTCGTGCTAG` is reported as 1.86 z-score.
For `TTAGGACTGGACTATCGTTTAGTGCTA`, the log fluorescence was 1.69 z-score.
The log fluorescence of `GACGGACTGCTGCTCCTGACGTGCTAG` is reported as -0.783 z-score.
With `TCAGCTCCCTTTCTCTCACTGTGCTAG` the log fluorescence was 0.692 z-score.
The log fluorescence of `TCATGTGTACATCTCTCACTGTGCTAG` is reported as 0.119 z-score.

Block 6
Target: NFE2L1, bZIP domain (human)
Technique: DHFR protein complementation
Matrix: yeast
Setting: single substitutions, most at no-binding floor
Reference: wild-type JUN-FOS pair
Reading: higher = stronger binding
Starting sequence: JUN, bZIP domain (human); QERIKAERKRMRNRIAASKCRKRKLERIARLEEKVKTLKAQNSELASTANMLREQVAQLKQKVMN; partner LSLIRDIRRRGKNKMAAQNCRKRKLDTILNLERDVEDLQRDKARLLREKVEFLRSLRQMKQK
For `R53I`, the binding fitness was -1.42 natural log.
The binding fitness of `A29W` is reported as -1.18 natural log.
`V35S` gave a binding fitness of -1.36 natural log.
`R53M` gave a binding fitness of -1.56 natural log.
`L38C` gave a binding fitness of -1.57 natural log.
The binding fitness of `A40L` is reported as -1.31 natural log.
For `V35Y`, the binding fitness was -1.58 natural log.
For `A40H`, the binding fitness was -1.56 natural log.
`E44A` gave a binding fitness of -1.52 natural log.
`N42C` gave a binding fitness of -1.52 natural log.
`S47N` gave a binding fitness of -1.42 natural log.
`A49D` has a binding fitness of -1.61 natural log.
For `A57M`, the binding fitness was -1.23 natural log.
For `S43Q`, the binding fitness was -1.5 natural log.
`E33M` has a binding fitness of -1.46 natural log.
For `Q55V`, the binding fitness was -1.51 natural log.
`L38P` gave a binding fitness of -1.42 natural log.
`L31R` has a binding fitness of -1.45 natural log.
The binding fitness of `Q55A` is reported as -1.21 natural log.
For `M51L`, the binding fitness was -1.5 natural log.
`S47M` gave a binding fitness of -1.51 natural log.
`A40F` has a binding fitness of -1.41 natural log.

Other studies, line by line
`PhoQ, residues 284 288 289 292 302 303 SIHMAM` has a fold induction of 8.54 (PhoP, residues 12 14 15 18 19 NNFVT (Escherichia coli, UniProt P23836); Sort-seq, measured: YFP reporter; E. coli; PhoQ-PhoP variant library, together with: 10 µM Mg2+; reference: high Mg2+ state, higher = stronger signaling).
